Measured values collected from several papers.
A part holds a random share of what one study measured. Substitutions count along the parent as printed.

Series 1
Target: Hepatocyte nuclear factor 3-alpha (Foxa1, Mus musculus, UniProt P35582, residues 1-468, full length assumed)
Technique: EMSA with sequencing
Molecule type: double-stranded DNA, one strand shown
Medium: in vitro
Concentration: 10 and 20 nM
Notes: whole designed probe, mean of two concentrations, ends assumed
Reference: negative control set to 0
Direction: higher = stronger binding
Shared flanks, not repeated: GTGAGCGGTGCCCATTGATGGGGAAC … TTTCACTGGGATCGTGGGGAC
Construct (chain): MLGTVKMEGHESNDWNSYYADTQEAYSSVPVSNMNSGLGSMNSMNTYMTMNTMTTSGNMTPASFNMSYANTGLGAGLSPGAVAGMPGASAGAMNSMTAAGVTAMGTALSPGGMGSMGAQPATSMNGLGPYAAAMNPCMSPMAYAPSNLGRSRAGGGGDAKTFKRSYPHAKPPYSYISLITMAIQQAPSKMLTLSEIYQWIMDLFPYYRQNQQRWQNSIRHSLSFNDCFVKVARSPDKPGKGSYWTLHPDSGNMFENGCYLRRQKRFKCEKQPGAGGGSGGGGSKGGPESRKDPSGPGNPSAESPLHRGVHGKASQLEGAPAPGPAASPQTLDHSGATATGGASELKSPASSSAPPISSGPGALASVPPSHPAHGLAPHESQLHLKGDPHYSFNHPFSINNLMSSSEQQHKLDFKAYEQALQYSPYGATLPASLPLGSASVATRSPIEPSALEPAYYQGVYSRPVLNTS
Sequence	normalised bound fraction [ratio]
AGCAGAACCAATATAATCATGATTGCATACACCCATACGTTAATATGTTGGTAAATTGGATTTGTTATATAAAGAAATTGCAATGAAGTGCTAAGTAAACAAATATCTGTTTACATTATAATCTCTATGGCATGTTATATTTTAATTTCTATCTAGAAATGCATTGTGAAACCTAATAAAAAATTTGAAGCTT	0.561
TGATGATACGTTATAGCATTTCTCTGCTCTGTAAGAGAGGCACCAGGGTCGTGTGCTGGGTCTGGGGTTTGCACATCCGGTTCCATTCGCTGCTGTTGACTCTGGTGTCGGCCGCTGGTGAGCTGGCTGTAGCTGGTCACCTCTGGGTGGTTTCTGGGGCGGTCGCAGGCTGACTAACACACCAAAGGTCAGC	0.000689
TATTGACATTTGGTGGCATTCAAGATGTTATTTACACTCAGCATACTGAACGTCCGTGCAACTGTTTGCATTAGGTTCAAGCCTCAGGCTCTTTGTTTGCTGAGGTTCACCTAACGTAGTTTAGCCCCATAAAGATTCCTGAAAGAGGCTCTTTGAGCTAAAGCAACTCCATAGAAAGTCATGCATGTGCAGC	0.44
GCCAGGAAATGTAGTTCTTTAGCTGGACCCATTGCTGCTCCCCTCCCACAAATCAGTTTTTGTTAGAAAGAAGGGGAAGTGGATTTGGGGAAAGTAATTTCAGCAGCTAAACAGCAAGTACAAATCACACATTCAAAAAGTGTGTCCATAAAGGGAAGGAGAGAGATGAGATGATAGTTGGAAGGGGATGTGG	-0.056
TTTATGCTTTGTTTGAATAACAAGAATGGAGGAGATAAGGGGAACAACTGTACTTCCTAATGGTTAGTCCACAAAAAGCCATTAGCATTCACTGTAATCTGCATTCATCAATGTGCTGTCTTAGGTCAGGATCAACTTCCTTATCTAAACTTGAGAAGGGACTGCCCTTTTTTCTCTATCTCACTTATAATAC	0.236
ATCTTCCCCCTCTTCCTTGCCCCACCAGCTCACCTACGGGGGTTATTTGCAGATAGGAAAATAAATAAAGCCGGCATTCGTTAACCCTCTTCTGGCGCAAACTGCTGTTTGCTCTGCATGAATCATGGTCCTTACGCGAGGCGTGGCTCCGGGAGAGCAAAGCACCGTGTCAGGCGCATGATCCGGGCTCGCC	0.349
CCTGAGTTGGTGGAGCCACAAAAAGGAATCCCTGAGTCACTGCTTAGTCACTGGGCTGCCTTGGAGAGTTGATGAGACCTCTGGAAACTTTGTGTAAATAAAGAAATGAACGCTTACATTTTAACTACCGGAACTTGGAGGTTTGTTTGTTACTGCAACAAAGGTTAGCTTTATTGACTAATGCACTGTAACA	0.445
GTGTGTGCGCGCGCGTGTGTGTGTGTTTTCTTAAGCCGGGCTATTCAAACCCTGCTGCAATTCTCCGGTAAACAATGATTCATGGGGCATAATGCAAATAAACGGATTGCAAACGGCGCGGTTCGCGCACTTTGCAGCCGGCCCGGTGGAGCAGCCAGTGCCGGATTTCTCCCTTTTTTTGCAGATCTGCAGA	0.415

Series 2
Target: ABI1, truncated, D143A, DHFR fusion (Arabidopsis thaliana)
Technique: DHFR PCA, deep sequencing
Medium: yeast
Notes: methotrexate growth selection, single substitutions
With: (+)-ABA 0.032 µM
Reference: wild-type fitted maximum
Direction: higher = stronger binding
Starting sequence: PYL1, truncated, DHFR fusion (Arabidopsis thaliana); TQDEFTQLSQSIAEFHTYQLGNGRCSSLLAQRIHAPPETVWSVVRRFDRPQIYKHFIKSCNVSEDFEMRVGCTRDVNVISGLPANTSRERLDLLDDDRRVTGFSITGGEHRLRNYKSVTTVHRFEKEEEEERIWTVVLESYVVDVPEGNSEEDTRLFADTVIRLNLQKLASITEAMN; partner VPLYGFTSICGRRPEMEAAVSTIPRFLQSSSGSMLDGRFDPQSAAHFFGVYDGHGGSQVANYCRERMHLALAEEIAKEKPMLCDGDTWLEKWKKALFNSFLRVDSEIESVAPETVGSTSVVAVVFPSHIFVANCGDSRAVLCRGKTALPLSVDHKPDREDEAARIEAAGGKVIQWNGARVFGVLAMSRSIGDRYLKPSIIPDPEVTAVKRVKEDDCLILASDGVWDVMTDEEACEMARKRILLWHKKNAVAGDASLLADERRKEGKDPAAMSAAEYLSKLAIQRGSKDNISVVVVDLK
Variant	relative binding score
L166R	4.03%
T173S	16.8%
T6P	44.1%
K126R	47.8%
D96N	6.73%
L28A	2.77%
T119I	-0.762%
I52S	12.1%
E64C	7.92%
N85I	64.1%
S63D	37.1%
R113F	0.749%
S140L	0.196%
R46E	7.88%
D3A	26.4%
R69Q	18.8%
I79H	15.3%
V137Q	-1.27%
V143I	1.27%
I33A	0.0906%
I105T	-2.09%
A158E	-3.85%
R24A	2.74%
T6E	45.3%
L20D	22.4%

Series 3
Target: Interferon regulatory factor 5, full length, phosphomimetic (IRF5, Homo sapiens, UniProt Q13568-2, residues 1-514, K96S/S451D/S453D/S456D/S462D)
Technique: protein-binding microarray
Molecule type: double-stranded DNA, one strand shown
Medium: in vitro
Concentration: 250 nM
Notes: 60-bp whole probe
With: salmon DNA 0.4 mg/ml
Reference: random background probes
Direction: higher = stronger binding
Shared flanks, not repeated: GCCTAGCAC … GTCTTGATTCGCTTGACGCTGCTG
Sequence	log fluorescence [z-score]
GACGGTTTTGACTTTCGGGACGTGCTA	5.75
TTAAATTTCAGTTTCGATTAGTGCTAG	10.1
GAAAATCCCACATTTGATAAAGTGCTA	1.42
TCACCTGTGCTATTTATAACTGTGCTA	0.286
TTAGGTTTCGACACTGGGATAGTGCTA	5.81
TTAGGTATGCTTATCCTTTAGTGCTAG	-0.176
TTAGAACTGAGCATCGATTAGTGCTAG	0.419
TTAGATCTCAGTCTCCATTAGTGCTAG	0.345
GACGGTATCGGACTAGGGACGTGCTAG	1.16
GACGCTATCGACTATCGGGACGTGCTA	4.32
GACGGACTGCTTATACTGACGTGCTAG	-0.428
TTAGGTATCGTTCTCGGTTAGTGCTAG	3.36
TTAGGTACCGGGTATCGGTTAGTGCTA	3.67
TCAGGTTTCGGGTTTCGGTTAGTGCTA	9.83
TTAGATATCAGTCTGGATTAGTGCTAG	1.2
TTAGGTCTCGCACTGGGTTAGTGCTAG	-0.135
TCAACCATCATCCTCACACTGTGCTAG	0.0663
GACGGACTGCTTCTCCGGACGTGCTAG	-0.372
TGATTGGTTGAACATGAACTGTGCTAG	-0.132

Series 4
Target: RNA binding protein fox-1 homolog 2, RRM domain, GST-SBP tag (RBFOX2, Homo sapiens, UniProt O43251-10, residues 100-194)
Technique: RNA Bind-n-Seq
Molecule type: RNA
Medium: in vitro
Concentration: 365 nM
Notes: natural RNA segment, single round, ends assumed
Reference: no-protein control
Direction: higher = stronger binding
Shared flanks, not repeated: GGGAGUUCUACAGUCCGACGAUC … UGGAAUUCUCGGGUGCCAA
Construct (chain): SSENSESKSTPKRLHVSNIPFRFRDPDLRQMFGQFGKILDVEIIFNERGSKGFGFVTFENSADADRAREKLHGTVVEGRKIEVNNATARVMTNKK
Sequence	RBNS enrichment (R)
CCAUGCAGAGCUACGAAAUCUGUGCUGAGAAAAUGCCAUCUGGAAAGAUUUUUAACCCAUUCAUUCUUAGUGUGAAUUUUCUAAAAUAGAAGUAUAAAAAAAAAGUCUCU	0.531
UCCCUGUGGUGGUCCUUAGGCACCAGUCUUUGUUAAACAAAACCCUUUGGCACUAUUGUGGUUUUCUAUUCUCUGUCUGAACUCUAUUCAAAAGUAUCUUUGCUCUCUUG	0.797
AUAUUAUACCUUAAGGAUUCCUACCAGGUUUUCUUGAAAAGUGGCUUUUACAUGAGGCAAGAAGGAAGUAGUUGUAGAUAGAAUCAUUUUCUAGUUCUUUAAAUGAGACA	0.478
GGGGCAGCUAGCAUGCCAGGUUGGUCUUUAGGCACCAGAGUCUUUAACAAAAAAAUCCUCUAGUACUGUGUGGUUUUCUAUUCUUCCAGUUCACUCUCCUGACUGUUCAG	1.23
AGUACCUAGAAACACACAAGGCUGCCCAGCCAAAUCUUAAUGUAAAGUAGCUAGAGCCAUGGAAGUACAGUAUGAAUUAAAAAGAAAAAAGUAUUGAACUACAAUAAUAA	0.363
UCUUUGGCCAAGGCUGGGCCUGACGGUUAUGAUUUCAGCCCUGGGCCUGCAGGAGAGGCUGAGACCAGCCCACCCAGCCAGUGGUCGAGCACUGCCCCGCCGCCAAAGUC	0.761
CCUAAGUCACAGGAUGAUUAUUAGGGAAAUGUCAUUGACACCUGAAAAUUACCUAUCCUGUAAAAAGACUGGUGAAAUUCAACAUGUUUUAAAUAAUUUAAUUGCAUUAU	0.316
UAAUAAUUAAGUUAUGUGGAAAAAGUAAGGCUGGGGAAGUCGUGAUUAAUAGUUUUCAAAGGGCCAUUUUUUAAAAUCCUCUGGGCAUUUUCUUUCAGCUGUUUGUUAGU	0.934
UUUUAUUUUUCUACUUUGAAUUGUAUACAUUUGGAAAGUACCCAAAUAAAUGAGAAGCUUCUAUCCUGAUUUGGGGAAGACAUUCCUUAGCGGAGGCUGUGCAGCCUCCC	0.382
UUGCAAAGUAUAUAAUAUCUAAGAGGAAAGGUUUUGUCAUCCCAGCGUUGUCCACUUUGUGGGGCUUUGUAGGUAGACGGAGCCACACUACAGGCAGGGUAUGAGCAGAG	0.785
AUGUUAUGUCUGAUGUUGUGUUUUUAGAGCUGUGAAAAGUCUGAAAAAUUUCAAGGGGUAUUAUUUAAAUGAUGAUUAUCUGGCUGAAUUAUGUGUGAGCUAGAAUCUAG	0.738
UCUGUUAAUGCCUCUGAGUGUCCUACCUCCUUGGAGAUGAGAUAGGGAAGGAGCAGGGAUGAGACUGGCAAUGGUCACAGGGAAAGAUGUGGCCUUUUGUGAUGGUUUUA	0.515

For quick reference, copied from above (series 2):
Variant	relative binding score
N85I	64.1%
S63D	37.1%
R113F	0.749%
S140L	0.196%
R46E	7.88%
D3A	26.4%
R69Q	18.8%
I79H	15.3%
V137Q	-1.27%
V143I	1.27%
I33A	0.0906%
